# Results gathered from unrelated publications.
# Each numbered part is a random draw from the data of one study; scales do not carry over between parts. Positions count from the first letter of the parent shown.

# Study 1
# Target: Sal-like protein 4, full length isoform B (SALL4, Homo sapiens, UniProt Q9UJQ4-2, residues 1-616)
# Method: universal PBM
# Molecule type: double-stranded DNA, one strand shown
# Sample: in vitro
# Concentration: not given
# Notes: 8-mer, flanks averaged, mean of replicates
# Direction: higher = stronger binding
# Residues (chain): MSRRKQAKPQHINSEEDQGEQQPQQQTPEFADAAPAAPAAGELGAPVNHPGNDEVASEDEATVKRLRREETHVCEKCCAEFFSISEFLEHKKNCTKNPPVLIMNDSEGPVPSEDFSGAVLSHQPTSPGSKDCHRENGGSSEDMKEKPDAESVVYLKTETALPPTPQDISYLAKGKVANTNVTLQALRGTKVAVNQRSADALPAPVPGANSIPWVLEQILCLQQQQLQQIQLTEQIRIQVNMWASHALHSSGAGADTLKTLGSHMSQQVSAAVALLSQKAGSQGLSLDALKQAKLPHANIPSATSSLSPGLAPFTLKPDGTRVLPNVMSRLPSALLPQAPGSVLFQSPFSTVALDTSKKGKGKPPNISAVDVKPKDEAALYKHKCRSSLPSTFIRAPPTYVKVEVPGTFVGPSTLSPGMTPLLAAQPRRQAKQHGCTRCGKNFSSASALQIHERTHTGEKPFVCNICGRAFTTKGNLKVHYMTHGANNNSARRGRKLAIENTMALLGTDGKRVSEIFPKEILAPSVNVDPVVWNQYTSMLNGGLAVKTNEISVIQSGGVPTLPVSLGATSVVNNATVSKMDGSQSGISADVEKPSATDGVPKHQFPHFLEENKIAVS
Sequence,E-score
ATAAACTC,0.276
CAGAAATC,0.122
AATCGATA,0.244
CCTGTAGC,-0.109
CCACGGGC,-0.385
ACACTTGA,0.121
GCCTTCCA,0.0381
CATCAGCA,0.0263
GGCCCAAA,-0.29
ACATGGGG,-0.296

# Study 2
# Target: CCND3, cyclin fold, Cln2 fusion (human)
# Method: yeast growth competition, sequencing
# Sample: yeast
# Notes: weak parent motif
# Relative to: not given
# Direction: higher = stronger binding
# Starting sequence: RB1 docking peptide (human); PKPLKKLRFDIEG
Substitution,normalised enrichment score
PKPLKKLRFDIMG [E12M],0.115
PKPLKKLCFDIEG [R8C],0.0934
PKPLKKGRFDIEG [L7G],0.151
PKPLKKLRFDIEW [G13W],0.113
PKPLKKHRFDIEG [L7H],0.0905
PKDLKKLRFDIEG [P3D],0.213
PKQLKKLRFDIEG [P3Q],0.0812

# Study 3
# Target: Fragile X messenger ribonucleoprotein 1, C-terminal low-complexity region (Fmr1, Mus musculus, UniProt P35922)
# Method: RNA Bind-n-Seq
# Molecule type: RNA
# Sample: in vitro
# Concentration: 200 nM
# Notes: whole 134-nt RNA, ends assumed
# Together with: 150 mM LiCl
# Relative to: input library
# Direction: higher = stronger binding
# All molecules: 7-deaza-guanosine replaces G
Sequence,log2 enrichment
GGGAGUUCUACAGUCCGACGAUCCCUCAAGUCCUGUGCUACACAUCGUAUGUACCGAAUCGGGUGGGUGGGGUGGGAAAGUAUUAUGUUACGCCGUUCGGAUCUGCACUUCCAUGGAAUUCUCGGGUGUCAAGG,-1.07
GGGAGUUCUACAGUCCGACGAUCCAAGUCCUGUGCUACACAUCGUAUGUACCGAAUCGGUUUUUUUGGUUUGGAAAGGAAAGUAUUAUGUUACGCCGUUCGGAUCUGCACUUCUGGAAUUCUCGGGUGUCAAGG,-1.71
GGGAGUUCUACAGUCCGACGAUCGCAGGAAGUAAAAACAAAUGGAAAUGCUUCGGUUAGUGGCAGGGGUGGGGGUUGCUAAGGAAAGGGUGGGAUGGGAGUGGGUAAAGAGUUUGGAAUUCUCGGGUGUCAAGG,1.31
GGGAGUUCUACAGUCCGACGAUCUCUCAGCACCCUCGUGAAACUGGACAAGAAGCCAGUGGAGACCAACGGUCCUGAUGCCAAUCACGAGUACAGUACAAGCAGCCAGCAUAUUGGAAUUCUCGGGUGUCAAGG,-0.488
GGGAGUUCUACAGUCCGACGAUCGCAGGAAGUUAAAACAAAUGGAAAUGCUUCGGAUAGUGGCAGGGGUGGGGGUUGCUAAGGAAAGGGUGGGAUGGGAGUGGGUAAAGAGUUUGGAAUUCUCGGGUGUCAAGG,1.4
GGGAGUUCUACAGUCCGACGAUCUCAAGUCCUGUGCUACACAUCGUAUGUACCGAAUCGGGAGGGUUUGGGAAAGGGAAAGUAUUAUGUUACGCCGUUCGGAUCUGCACUUCCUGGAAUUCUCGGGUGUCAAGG,-0.733
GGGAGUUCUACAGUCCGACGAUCUUUCCAAGAAGUGCACUGAAAAUGACAUCCGAGUCAUGUUCUCUUCGUUUGGACAGAUUGAAGAAUGCCGGAUAUUGCGGGGACCUGAUGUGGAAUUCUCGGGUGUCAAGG,-1.28
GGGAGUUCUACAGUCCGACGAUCGCAGGAAGUAGAAACAAAUGGAAAUGCUUCGGAUAGUGGCAGGGGUGGGGGUUGCUAAGGAAAGGGUGGGAUGGGAGUGGGUAAAGAGUUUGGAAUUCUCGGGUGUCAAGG,1.96
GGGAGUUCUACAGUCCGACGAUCCCUCAAGUCCUGUGCUACACAUCGUAUGUACCGAAUCGGUGGUUUGGUUUGGAAAGUAUUAUGUUACGCCGUUCGGAUCUGCACUUCCAGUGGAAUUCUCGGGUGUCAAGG,-0.886
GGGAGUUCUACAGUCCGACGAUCCACAGACAUCACGCACCCACACAGACACAGAGGGAAGGGGUUGGGAUGGGGACAGGGUGCACAGCAGGGCGGGGUAGGACCCCAGCCCCUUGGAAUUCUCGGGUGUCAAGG,0.786
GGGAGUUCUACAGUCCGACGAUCCAAGUCCUGUGCUACACAUCGUAUGUACCGAAUCGGGAGGGUUUUUGGGUUUGGGAAAGUAUUAUGUUACGCCGUUCGGAUCUGCACUUCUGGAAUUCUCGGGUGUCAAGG,-1.37

# Other studies, line by line
Substance,target,test,test system,conditions,how to read,measurement,result
"PhoQ, residues 284 288 289 292 302 303 GLASVI","PhoP, residues 12 14 15 18 19 QWHVF (Escherichia coli, UniProt P23836)","Sort-seq, refers to: YFP reporter",E. coli,"PhoQ-PhoP variant library, together with: 10 µM Mg2+","relative to: high Mg2+ state, higher = stronger signaling",fold induction,5.13

# Repeated from above (study 3):
Sequence,log2 enrichment
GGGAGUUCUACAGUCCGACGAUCGCAGGAAGUAAAAACAAAUGGAAAUGCUUCGGUUAGUGGCAGGGGUGGGGGUUGCUAAGGAAAGGGUGGGAUGGGAGUGGGUAAAGAGUUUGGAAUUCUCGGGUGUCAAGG,1.31
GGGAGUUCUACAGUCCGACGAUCUCUCAGCACCCUCGUGAAACUGGACAAGAAGCCAGUGGAGACCAACGGUCCUGAUGCCAAUCACGAGUACAGUACAAGCAGCCAGCAUAUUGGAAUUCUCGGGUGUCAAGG,-0.488
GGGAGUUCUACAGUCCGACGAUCGCAGGAAGUUAAAACAAAUGGAAAUGCUUCGGAUAGUGGCAGGGGUGGGGGUUGCUAAGGAAAGGGUGGGAUGGGAGUGGGUAAAGAGUUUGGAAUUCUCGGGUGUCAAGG,1.4
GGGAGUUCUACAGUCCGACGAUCUCAAGUCCUGUGCUACACAUCGUAUGUACCGAAUCGGGAGGGUUUGGGAAAGGGAAAGUAUUAUGUUACGCCGUUCGGAUCUGCACUUCCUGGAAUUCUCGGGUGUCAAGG,-0.733
